Published values from different studies.
Each numbered part is a random draw from the data of one study; scales do not carry over between parts.

Study 1
Target: Centromere-binding protein 1, full length, His-tagged (CBF1, Saccharomyces cerevisiae, UniProt P17106, residues 1-351)
Sequence of UniProt P17106 (whole entry, looked up): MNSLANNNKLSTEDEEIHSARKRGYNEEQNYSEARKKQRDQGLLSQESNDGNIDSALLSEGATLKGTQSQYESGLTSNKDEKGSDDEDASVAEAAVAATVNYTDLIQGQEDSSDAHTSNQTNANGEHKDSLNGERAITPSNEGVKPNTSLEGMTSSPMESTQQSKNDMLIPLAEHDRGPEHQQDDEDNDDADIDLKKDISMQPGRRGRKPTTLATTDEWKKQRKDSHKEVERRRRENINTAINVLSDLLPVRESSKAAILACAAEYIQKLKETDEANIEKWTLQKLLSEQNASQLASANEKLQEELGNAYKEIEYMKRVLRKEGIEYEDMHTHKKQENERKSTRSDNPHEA
Technique: competition protein-binding microarray
Form: double-stranded DNA, one strand shown
Matrix: in vitro
Tested at: 2 µM
Notes: whole 60-bp probe, lowest competitor level
With: Pho4 competitor, 0.05 µM
Direction: higher = stronger binding
The fluorescence intensity of `CATACCCAACCTTGAGGAGTGGGTGAAGATATTTGTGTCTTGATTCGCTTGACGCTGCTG` is reported as 62.1 a.u.
`AAACCATTCAGGTCTTGCGTGCCGAGAATTTTTTTTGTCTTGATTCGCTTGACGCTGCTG` gave a fluorescence intensity of 86.3 a.u.
For `AGTCACTATGATGAGGATAATACCATGAAGAAAAATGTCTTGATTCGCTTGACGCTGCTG`, the fluorescence intensity was 72.9 a.u.
`GCCCATCATCGCGGCCACGCAACCCGGTAATCTCTAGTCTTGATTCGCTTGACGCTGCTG` has a fluorescence intensity of 50 a.u.
`GTTGAAGTCAAGTTGAACGTGATGGGATACTGATTTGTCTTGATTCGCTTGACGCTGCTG` gave a fluorescence intensity of 173 a.u.
For `CTGTACGTTGGCATCCGCGTGCTTTAAAAGGGTGTAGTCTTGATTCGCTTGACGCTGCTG`, the fluorescence intensity was 122 a.u.
`AGGAGCCCTGATTTCTTCGTGCGATATCGGTGCGGGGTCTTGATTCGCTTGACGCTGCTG` gave a fluorescence intensity of 63.1 a.u.
`TGCGCAACAACTTGTCACAGTACTTTATGTCTAGAAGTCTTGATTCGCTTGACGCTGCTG` gave a fluorescence intensity of 78.1 a.u.

Study 2
Cell line: HEK-293T/ACE2
Tested at: 10 µM
Time: 16 h
Relative to: vehicle
The viability of `O=C(O)c1cc(-c2ccc(F)cc2F)ccc1O` is reported as 100%.
`Nc1nc(O)c2ncn(COC(CO)CO)c2n1` gave a viability of 100%.
`CCCCCCCCCCC[C@@H](C[C@@H]1OC(=O)[C@H]1CCCCCC)OC(=O)[C@H](CC(C)C)NC=O` gave a viability of 98.9%.

Study 3
Target: Replicase polyprotein 1ab, nsp13 helicase (rep, Severe acute respiratory syndrome coronavirus 2, UniProt P0DTD1)
Mode: inhibitor
Tested at: 20 µM
The inhibition of `Cc1cc(S(=O)(=O)O)c2c(C)ccc(C(C)C)cc1-2` is reported as 6.53%.
`COc1ccc(C2C(=O)c3ccccc3C2=O)cc1` has an inhibition of -0.59%.
`Cc1ccc(S(=O)(=O)NC(=O)NN2CCCCCC2)cc1` gave an inhibition of -1.98%.
The inhibition of `N#Cc1ccc(N2CCN(C(=O)COc3ccc4[nH]cc(CCN)c4c3)CC2)cc1` is reported as 5.15%.
`C=CC(=O)Nc1ccc2ncnc(Nc3cccc(Br)c3)c2c1` gave an inhibition of 2.41%.
For `CN1CCN(c2nc(C3=C(c4c[nH]c5ccccc45)C(=O)NC3=O)c3ccccc3n2)CC1`, the inhibition was 12.1%.
With `CCCCCCCCCCCCCCCC(=O)C(F)(F)F` the inhibition was -4.63%.
For `C=C(C)[C@@H]1CC[C@]2(C(=O)O)CC[C@]3(C)[C@H](CC[C@@H]4[C@@]5(C)CC[C@H](OC(=O)CC(C)(C)C(=O)O)C(C)(C)[C@@H]5CC[C@]43C)[C@@H]12`, the inhibition was 6.53%.
`O=C1Nc2ccc(Cl)cc2[C@@](C#CC2CC2)(C(F)(F)F)O1` has an inhibition of -2.89%.
`COc1cccc(OC)c1-c1cc(C(=O)NC(CC(C)C)C(=O)O)nn1-c1ccnc2cc(Cl)ccc12` (stereo not shown) has an inhibition of 4.35%.
For `NC(=O)c1ncn([C@@H]2O[C@H](CO)[C@@H](O)[C@H]2O)c1N`, the inhibition was 5.83%.
The inhibition of `COc1ccc(/C=C/C(=O)O)cc1` is reported as 0.21%.
The inhibition of `O=C1OC(OC(=O)c2cccnc2Nc2cccc(C(F)(F)F)c2)c2ccccc21` (stereo not shown) is reported as 0.96%.
For `OC(c1ccccc1)(c1ccccc1)C12CC[N+](CCOCc3ccccc3)(CC1)CC2`, the inhibition was 0.78%.
The inhibition of `COc1cc(Br)c(S(=O)(=O)Nc2ccc(C(F)(F)F)c(O[C@@H]3CCN(C)C3)c2)cc1OC` is reported as 0.91%.
The inhibition of `Cc1nn(-c2ccccc2)c(C)c1/C=N/N1CCN(Cc2ccccc2)CC1` is reported as 4.41%.
`NCCNC(=O)c1ccc(Cl)cn1` has an inhibition of 2.1%.
`O=C(Cc1cccc(OC(F)(F)F)c1)Nc1ccc(CCCCc2nnc(NC(=O)Cc3ccccn3)s2)nn1` has an inhibition of 4%.
The inhibition of `N#CCNC(=O)c1ccc(-c2ccnc(Nc3ccc(N4CCOCC4)cc3)n2)cc1` is reported as 47.7%.
`CC(=O)OCC(=O)[C@@]12N=C(C)O[C@@H]1C[C@H]1[C@@H]3CCC4=CC(=O)C=C[C@]4(C)[C@H]3[C@@H](O)C[C@@]12C` gave an inhibition of 9.44%.
`CN(C)C[C@H](O)Cn1c2ccc(Br)cc2c2cc(Br)ccc21` (racemic) gave an inhibition of 13.8%.
With `Cc1cnc(-c2cc(N3CCN(C(=O)CCS(C)(=O)=O)CC3)ncc2Cl)c(C)c1` the inhibition was 3.84%.
With `Clc1ccc(C(OCCN2CCCCC2)c2ccccc2)cc1` (stereo not shown) the inhibition was 6.58%.
For `CO[C@@H]1COCC[C@@H]1N[C@@H]1CC[C@@](C(=O)N2CCc3ncc(C(F)(F)F)cc3C2)(C(C)C)C1`, the inhibition was 7.47%.
For `O=C(O)c1ccccc1-c1ccc(C(F)(F)F)cc1`, the inhibition was 2.5%.

Study 4
Target: Replicase polyprotein 1ab, main protease (rep, Severe acute respiratory syndrome coronavirus 2, UniProt P0DTD1)
Effect on: enzyme activity
Mode: inhibitor
Notes: without DTT
With `c1cnc(SCc2cccnc2)nc1` the IC50 was 9000 nM.
With `Cn1sc(=O)n(Cc2ccccc2)c1=O` the IC50 was 140 nM.
The IC50 of `CC(C)(C)c1ccc(S(=O)(=O)/C=C/C#N)cc1` is reported as 800 nM.

Study 5
Target: Interferon regulatory factor 5, full length, phosphomimetic (IRF5, Homo sapiens, UniProt Q13568-2, residues 1-514, S451D/S453D/S456D/S462D)
Technique: protein-binding microarray
Form: double-stranded DNA, one strand shown
Matrix: in vitro
Tested at: 940 nM top
Notes: 60-bp whole probe
With: salmon DNA 0.4 mg/ml
Relative to: random background probes
Direction: higher = stronger binding
Constant ends, left off below: GCCTAGCAC … GTCTTGATTCGCTTGACGCTGCTG
Under “fitted relative affinity”, `GACGATTTCGGGTTTCGACACGTGCTA` is recorded as 2.49 z-score.
`TCATCTTTCCACTTTCTACTGTGCTAG` — result for “fitted relative affinity”: 2.16 z-score.
`GTAGAACTGGGGACTGGATTAGTGCTA` — result for “fitted relative affinity”: -0.199 z-score.
Under “fitted relative affinity”, `TCAACAATTTCAGATTCCACTGTGCTA` is recorded as 0.839 z-score.
For `TCACATATATATATGAAACTGTGCTAG`, “fitted relative affinity” read 0.486 z-score.
`TTAGGTATCGGGTATCGGTTAGTGCTA` — result for “fitted relative affinity”: 7.07 z-score.
Under “fitted relative affinity”, `CTGTACATCTATGTAGAAAGGTGCTAG` is recorded as 0.00556 z-score.
`GACGAATTCGGGTTTCGAGACGTGCTA`: “fitted relative affinity” 2.1 z-score.

Study 6
Target: Ras GTPase-activating protein-binding protein 1, RRM domain (G3BP1, Homo sapiens, UniProt Q13283)
Sequence of UniProt Q13283 (whole entry, looked up): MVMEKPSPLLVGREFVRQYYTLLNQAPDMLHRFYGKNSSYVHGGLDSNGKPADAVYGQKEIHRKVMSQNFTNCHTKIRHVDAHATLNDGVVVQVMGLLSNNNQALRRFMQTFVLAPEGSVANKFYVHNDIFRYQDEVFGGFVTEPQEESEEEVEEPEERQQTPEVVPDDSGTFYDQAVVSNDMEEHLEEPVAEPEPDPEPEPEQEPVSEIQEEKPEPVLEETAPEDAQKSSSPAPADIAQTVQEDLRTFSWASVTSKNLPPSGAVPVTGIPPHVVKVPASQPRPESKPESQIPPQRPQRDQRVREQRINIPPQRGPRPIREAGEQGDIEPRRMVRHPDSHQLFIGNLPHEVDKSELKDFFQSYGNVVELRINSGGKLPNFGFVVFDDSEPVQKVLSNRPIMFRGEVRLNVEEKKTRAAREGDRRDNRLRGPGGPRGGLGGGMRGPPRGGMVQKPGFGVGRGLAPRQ
Technique: RNA Bind-n-Seq
Form: RNA
Matrix: in vitro
Tested at: 1 µM
Notes: whole 134-nt RNA, ends assumed
With: 150 mM KCl
Relative to: input library
Direction: higher = stronger binding
For `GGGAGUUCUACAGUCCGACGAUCACCAUGCAGGUGGGCAUCUUUGGGAAGUGGGGCAAGGGGGGGAUAGGGAGGGGGGUAACACUAAAGGAACAGGUGGUCCCAGGUCGUUUCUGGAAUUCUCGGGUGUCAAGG`, the log2 enrichment was -0.322.
For `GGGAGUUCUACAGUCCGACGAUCUCAAGUCCUGUGCUACACAUCGUAUGUACCGAAUCGGUUUUUUUGGUUUGGUGGAAAGUAUUAUGUUACGCCGUUCGGAUCUGCACUUCCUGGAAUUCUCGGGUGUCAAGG`, the log2 enrichment was -0.309.
The log2 enrichment of `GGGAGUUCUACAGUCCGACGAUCUGGGAGGUGGAUUUUGUUUAUUUUUUUAGCUCAUUUCCAGGGGUUGGAAUUUUUUUUUAAUAUGUGUCAUGAAUAAAGUUGUUUUUGAAAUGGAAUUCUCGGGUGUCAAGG` is reported as 1.14.
For `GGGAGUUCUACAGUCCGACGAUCGCAGGAAGUAAAAACAAAUGGAAAUGCUUCGGAUAGUGGCAGGGGUGGAGGUUGCUAAGGAAAGGGUGGGAUGGGAGUGGGUAAAGAGUUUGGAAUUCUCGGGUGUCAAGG`, the log2 enrichment was 0.797.
With `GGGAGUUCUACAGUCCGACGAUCGCAGGAAGUAAAAACAAAUGGAAAUGCUUCGGAUAGUGGCAGGGGUGGGGGUUGCUAAGGGAAGGGUGGGAUGGGAGUGGGUAAAGAGUUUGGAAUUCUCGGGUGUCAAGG` the log2 enrichment was 1.74.
`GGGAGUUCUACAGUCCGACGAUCUACCUGAUCAAUGACAGAGCCUUCUGAGGACAUUCCAAGACAGUAUACAGUCCUGUGGUCUCCUUGGAAAUCCGUCUAGUUAACAUUUCAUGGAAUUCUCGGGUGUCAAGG` has a log2 enrichment of -0.209.
`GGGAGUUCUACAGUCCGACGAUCCUGUGCUACACAUCGUAUGUACCGAAUCGGGGAAAAAAAGGGGAAAAAGGGGUUUUUGGGGAAAGUAUUAUGUUACGCCGUUCGGAUCUGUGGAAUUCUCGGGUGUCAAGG` has a log2 enrichment of 1.06.
`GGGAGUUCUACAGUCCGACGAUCCCUCAAGUCCUGUGCUACACAUCGUAUGUACCGAAUCGGGGUGGGGUGGUGGAAAGUAUUAUGUUACGCCGUUCGGAUCUGCACUUCCAGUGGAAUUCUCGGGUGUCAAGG` gave a log2 enrichment of -0.224.
